Assay results from different studies.
Every numbered part comes from another study and shows a few of its results, in no order. Values joined by “and” are separate records of one study, mostly repeats; a detail may differ.
Chain of UniProt P10721 (whole entry, unmodified, looked up): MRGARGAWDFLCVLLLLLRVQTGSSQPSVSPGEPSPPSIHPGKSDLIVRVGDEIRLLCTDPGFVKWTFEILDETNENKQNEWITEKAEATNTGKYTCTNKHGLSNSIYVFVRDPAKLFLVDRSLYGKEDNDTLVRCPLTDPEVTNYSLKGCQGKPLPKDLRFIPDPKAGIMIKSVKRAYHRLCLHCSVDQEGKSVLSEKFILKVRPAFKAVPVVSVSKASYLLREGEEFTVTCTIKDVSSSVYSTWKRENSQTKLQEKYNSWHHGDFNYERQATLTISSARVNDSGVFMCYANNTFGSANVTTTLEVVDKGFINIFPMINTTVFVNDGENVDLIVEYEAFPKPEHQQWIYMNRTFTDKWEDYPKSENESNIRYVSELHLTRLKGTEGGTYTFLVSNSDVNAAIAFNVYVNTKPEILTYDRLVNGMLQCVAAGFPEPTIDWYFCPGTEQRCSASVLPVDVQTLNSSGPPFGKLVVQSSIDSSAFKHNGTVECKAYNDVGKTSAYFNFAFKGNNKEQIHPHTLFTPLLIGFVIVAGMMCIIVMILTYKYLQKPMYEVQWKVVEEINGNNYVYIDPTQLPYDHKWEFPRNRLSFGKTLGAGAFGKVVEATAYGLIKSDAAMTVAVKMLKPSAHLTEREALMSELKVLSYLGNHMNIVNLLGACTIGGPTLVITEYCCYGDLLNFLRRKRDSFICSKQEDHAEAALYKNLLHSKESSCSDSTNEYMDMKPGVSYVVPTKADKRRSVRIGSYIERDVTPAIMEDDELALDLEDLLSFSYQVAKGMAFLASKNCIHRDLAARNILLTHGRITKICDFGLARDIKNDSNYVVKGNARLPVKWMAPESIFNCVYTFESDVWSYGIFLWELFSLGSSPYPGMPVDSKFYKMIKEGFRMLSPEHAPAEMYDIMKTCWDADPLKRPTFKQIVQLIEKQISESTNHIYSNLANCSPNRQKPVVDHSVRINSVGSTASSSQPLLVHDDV
Chain of UniProt P54756 (whole entry, looked up): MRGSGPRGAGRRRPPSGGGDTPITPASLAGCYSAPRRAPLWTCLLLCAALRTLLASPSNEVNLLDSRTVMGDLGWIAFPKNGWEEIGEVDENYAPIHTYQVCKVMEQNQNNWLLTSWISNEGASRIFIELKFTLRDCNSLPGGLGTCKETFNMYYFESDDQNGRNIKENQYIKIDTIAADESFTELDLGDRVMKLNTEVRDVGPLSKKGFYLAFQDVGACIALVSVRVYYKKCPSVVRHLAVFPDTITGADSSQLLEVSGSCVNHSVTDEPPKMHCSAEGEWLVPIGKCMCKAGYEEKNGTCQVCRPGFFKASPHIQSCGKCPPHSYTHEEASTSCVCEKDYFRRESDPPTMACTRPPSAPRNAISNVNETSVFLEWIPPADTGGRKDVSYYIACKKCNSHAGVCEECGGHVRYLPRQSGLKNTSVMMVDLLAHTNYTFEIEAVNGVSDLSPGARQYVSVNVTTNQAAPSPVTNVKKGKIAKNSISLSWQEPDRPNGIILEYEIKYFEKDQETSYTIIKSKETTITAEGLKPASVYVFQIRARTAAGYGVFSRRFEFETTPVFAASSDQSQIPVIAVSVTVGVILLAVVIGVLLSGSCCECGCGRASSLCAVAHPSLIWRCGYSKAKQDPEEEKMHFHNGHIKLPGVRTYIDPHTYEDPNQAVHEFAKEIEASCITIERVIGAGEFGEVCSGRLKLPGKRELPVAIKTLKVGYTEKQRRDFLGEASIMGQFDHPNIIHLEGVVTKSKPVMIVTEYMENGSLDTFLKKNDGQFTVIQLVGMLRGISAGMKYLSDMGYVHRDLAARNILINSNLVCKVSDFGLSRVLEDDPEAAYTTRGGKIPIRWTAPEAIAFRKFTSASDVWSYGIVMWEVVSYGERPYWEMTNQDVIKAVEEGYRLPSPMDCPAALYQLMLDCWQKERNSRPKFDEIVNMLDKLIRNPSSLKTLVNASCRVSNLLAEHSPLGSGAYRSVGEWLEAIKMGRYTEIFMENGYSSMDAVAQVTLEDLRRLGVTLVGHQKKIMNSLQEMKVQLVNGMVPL
Chain of UniProt Q15208 (whole entry, looked up): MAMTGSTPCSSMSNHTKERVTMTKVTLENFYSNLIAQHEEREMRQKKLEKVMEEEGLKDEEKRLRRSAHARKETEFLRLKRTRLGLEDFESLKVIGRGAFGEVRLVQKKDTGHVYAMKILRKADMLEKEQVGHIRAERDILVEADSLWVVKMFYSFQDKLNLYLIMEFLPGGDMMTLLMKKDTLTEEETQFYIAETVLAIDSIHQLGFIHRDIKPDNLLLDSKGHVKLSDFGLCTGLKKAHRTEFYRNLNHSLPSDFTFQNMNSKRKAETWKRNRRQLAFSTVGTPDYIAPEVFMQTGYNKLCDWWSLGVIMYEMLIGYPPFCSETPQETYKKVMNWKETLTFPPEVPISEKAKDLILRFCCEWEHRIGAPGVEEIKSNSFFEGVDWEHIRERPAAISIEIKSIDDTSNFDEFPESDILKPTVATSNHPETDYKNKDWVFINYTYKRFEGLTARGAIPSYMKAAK
Chain of UniProt Q92630 (whole entry, looked up): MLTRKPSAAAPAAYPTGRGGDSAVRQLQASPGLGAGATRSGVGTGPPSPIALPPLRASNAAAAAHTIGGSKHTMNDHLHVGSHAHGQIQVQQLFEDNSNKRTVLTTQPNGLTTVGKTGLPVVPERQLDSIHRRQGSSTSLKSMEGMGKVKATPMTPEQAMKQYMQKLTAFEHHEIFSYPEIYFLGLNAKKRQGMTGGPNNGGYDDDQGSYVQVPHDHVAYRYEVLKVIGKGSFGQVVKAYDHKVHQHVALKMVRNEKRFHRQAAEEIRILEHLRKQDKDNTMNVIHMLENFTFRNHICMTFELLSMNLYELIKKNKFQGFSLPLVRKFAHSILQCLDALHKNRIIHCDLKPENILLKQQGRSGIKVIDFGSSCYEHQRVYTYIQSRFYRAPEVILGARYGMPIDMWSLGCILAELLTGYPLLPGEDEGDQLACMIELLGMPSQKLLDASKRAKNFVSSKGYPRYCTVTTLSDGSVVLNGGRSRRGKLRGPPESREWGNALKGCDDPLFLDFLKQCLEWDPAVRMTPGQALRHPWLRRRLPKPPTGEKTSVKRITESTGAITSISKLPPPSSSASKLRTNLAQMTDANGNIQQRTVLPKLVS
Chain of UniProt Q9NWZ3 (whole entry, looked up): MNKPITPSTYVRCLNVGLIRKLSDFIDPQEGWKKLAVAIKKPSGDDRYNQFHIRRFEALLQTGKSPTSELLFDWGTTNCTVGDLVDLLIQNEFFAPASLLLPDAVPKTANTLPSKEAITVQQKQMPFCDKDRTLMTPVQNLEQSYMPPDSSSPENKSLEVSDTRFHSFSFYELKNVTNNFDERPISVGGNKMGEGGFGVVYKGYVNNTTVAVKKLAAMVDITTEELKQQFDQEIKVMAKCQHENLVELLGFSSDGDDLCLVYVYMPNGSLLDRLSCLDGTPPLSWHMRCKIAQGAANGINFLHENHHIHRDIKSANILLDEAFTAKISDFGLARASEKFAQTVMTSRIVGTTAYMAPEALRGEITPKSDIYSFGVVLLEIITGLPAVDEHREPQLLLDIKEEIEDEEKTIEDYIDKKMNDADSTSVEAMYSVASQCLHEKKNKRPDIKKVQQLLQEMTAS
Chain of UniProt Q13163 (whole entry, looked up): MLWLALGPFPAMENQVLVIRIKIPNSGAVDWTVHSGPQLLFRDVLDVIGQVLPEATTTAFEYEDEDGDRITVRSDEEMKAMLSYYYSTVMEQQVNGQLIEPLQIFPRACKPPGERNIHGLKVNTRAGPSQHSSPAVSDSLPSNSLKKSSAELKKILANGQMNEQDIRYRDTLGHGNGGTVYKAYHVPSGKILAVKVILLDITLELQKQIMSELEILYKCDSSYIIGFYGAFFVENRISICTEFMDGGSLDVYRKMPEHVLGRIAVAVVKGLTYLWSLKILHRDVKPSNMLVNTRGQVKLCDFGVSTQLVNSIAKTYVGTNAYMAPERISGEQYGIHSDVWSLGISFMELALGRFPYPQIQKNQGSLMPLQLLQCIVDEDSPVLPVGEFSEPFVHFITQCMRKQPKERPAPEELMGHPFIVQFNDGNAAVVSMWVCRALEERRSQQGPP
Chain of UniProt P20794 (whole entry, looked up): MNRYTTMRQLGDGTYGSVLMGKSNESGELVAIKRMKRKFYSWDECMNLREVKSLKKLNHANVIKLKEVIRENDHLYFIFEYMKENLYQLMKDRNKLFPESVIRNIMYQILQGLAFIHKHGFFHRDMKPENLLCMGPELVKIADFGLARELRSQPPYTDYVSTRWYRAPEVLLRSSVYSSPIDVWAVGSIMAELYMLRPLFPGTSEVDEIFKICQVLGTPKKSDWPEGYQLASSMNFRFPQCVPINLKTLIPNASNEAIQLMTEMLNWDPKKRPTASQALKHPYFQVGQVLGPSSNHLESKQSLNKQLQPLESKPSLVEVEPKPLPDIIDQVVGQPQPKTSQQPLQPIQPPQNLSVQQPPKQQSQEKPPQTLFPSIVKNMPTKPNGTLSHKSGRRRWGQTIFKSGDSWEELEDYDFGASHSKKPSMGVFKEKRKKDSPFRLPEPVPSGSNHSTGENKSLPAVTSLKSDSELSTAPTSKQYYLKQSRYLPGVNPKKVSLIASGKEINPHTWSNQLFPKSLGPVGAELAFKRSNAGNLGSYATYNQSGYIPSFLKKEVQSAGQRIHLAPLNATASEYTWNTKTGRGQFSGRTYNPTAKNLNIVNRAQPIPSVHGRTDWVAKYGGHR

Study 1
Target: Eukaryotic initiation factor 4A-III (Homo sapiens, UniProt P38919)
Chain of UniProt P38919 (whole entry, looked up): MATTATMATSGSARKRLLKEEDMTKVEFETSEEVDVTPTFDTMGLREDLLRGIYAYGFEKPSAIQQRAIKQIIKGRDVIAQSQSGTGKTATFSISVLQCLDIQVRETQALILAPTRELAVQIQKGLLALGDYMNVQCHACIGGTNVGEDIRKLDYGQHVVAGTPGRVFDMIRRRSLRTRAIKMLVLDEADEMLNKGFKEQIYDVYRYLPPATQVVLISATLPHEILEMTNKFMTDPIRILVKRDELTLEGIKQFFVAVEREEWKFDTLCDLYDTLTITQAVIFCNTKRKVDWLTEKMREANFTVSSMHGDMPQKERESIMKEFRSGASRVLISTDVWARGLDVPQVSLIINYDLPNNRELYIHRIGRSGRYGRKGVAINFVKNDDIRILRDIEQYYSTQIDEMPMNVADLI
Effect on: RNA clamping
Technique: fluorescence polarization
Tested at: concentration not given
Notes: mean of two replicates
Together with: FAM-labelled poly r(AG)8 RNA
Endpoint: fluorescence polarization change
COc1ccc([C@@]23Oc4cc(OC)cc(OC)c4[C@]2(O)[C@H](O)[C@H](C(=O)c2nccn2C)[C@H]3c2ccccc2)cc1: 15.6 mP
COCCN[C@@]12C(=O)C[C@@H](c3ccccc3)[C@]1(c1ccc(OC)cc1)Oc1cc(OC)cc(OC)c12: 0.8 mP
COC(=O)[C@H]1C(=O)[C@@]2(NCCc3scnc3C)c3c(OC)cc(OC)cc3O[C@@]2(c2ccc(OC)cc2)[C@@H]1c1ccccc1: 3.6 mP
COc1ccc([C@@]23Oc4cc(OC)cc(OC)c4[C@]2(O)[C@H](O)[C@H](C(=O)c2ccco2)[C@H]3c2ccccc2)cc1: 23 mP and 11.5 mP
COC(=O)[C@@H]1[C@@H](c2ccccc2)[C@]2(c3ccc(OC)cc3)Oc3cc(OC)cc(OC)c3[C@@]23N=C(c2ccccc2)N[C@@]13O: 13.2 mP
COC(=O)[C@@H]1[C@@H](c2ccccc2)[C@]2(c3ccc(OC)cc3)Oc3cc(OC)cc(OC)c3[C@@]23OC(c2cccnc2)=N[C@@]13O: 3.5 mP
CO/N=C(\c1ccco1)[C@H]1[C@@H](O)[C@@]2(O)c3c(OC)cc(OC)cc3O[C@@]2(c2ccc(OC)cc2)[C@@H]1c1ccccc1: 7.3 mP
COC(=O)C1=C(OS(=O)(=O)c2ccc(C)cc2)[C@@]2(O)c3c(OC)cc(OC)cc3O[C@@]2(c2ccc(OC)cc2)[C@@H]1c1ccccc1: 3.5 mP
CCCC1=N[C@@]2(O)[C@H](C(=O)OC)[C@@H](c3ccccc3)[C@]3(c4ccc(OC)cc4)Oc4cc(OC)cc(OC)c4[C@]23N1: 36 mP
C#CCOc1cc(OC)c2c(c1)O[C@@]1(c3ccc(OC)cc3)[C@H](c3ccccc3)c3c(nc(-c4ccccc4)[nH]c3=O)[C@@]21O: 1.5 mP
COc1ccc([C@]23Oc4cc(OC)cc(OC)c4[C@@]2(O)c2nc(-c4cccc(OC)c4)[nH]c(=O)c2[C@@H]3c2ccccc2)cc1: 12.9 mP
COc1ccc([C@@]23Oc4cc(OC)cc(OC)c4[C@]2(O)[C@H](O)[C@H](C(=O)c2ccco2)[C@H]3c2ccccc2OC)cc1: 23.6 mP
COc1ccc([C@@]23Oc4cc(OC)cc(OC)c4[C@]2(O)[C@H](O)[C@H](C(=O)NCCCC(OC)OC)[C@H]3c2ccccc2)cc1: 43.5 mP
COc1ccc([C@]23Oc4cc(OC)cc(OC)c4[C@](O)([C@H](C(=O)NCCCC(OC)OC)[C@H]2c2ccccc2)[C@@H]3O)cc1: 0 mP
COC(=O)C1=C(c2ccccc2)[C@]2(c3ccc(OC)cc3)Oc3cc(OC)cc(OC)c3[C@]2(O)C1=O: 10.6 mP
COc1ccc([C@@]23Oc4cc(OC)c(Cl)c(OC)c4[C@]2(O)c2nc4n(c(=O)c2[C@H]3c2ccccc2)CCC4)cc1: 16 mP
CCCN(CCC)[C@@]12C(=O)[C@H](C(=O)OC)[C@@H](c3ccccc3)[C@]1(c1ccc(OC)cc1)Oc1cc(OC)cc(OC)c12: 3.4 mP

Study 2
SMILES: O=C1c2ccccc2-c2nc3nnnn3nc21
Effect on: enzyme activity
Mode: inhibitor
Tested at: 0.5 µM
Baseline: control
Endpoint: remaining activity
MKNK2 (Homo sapiens, UniProt Q9HBH9): 78.2%
LYN (Homo sapiens, UniProt P07948): 85.2%
Cyclin-dependent kinase 9, with cyclin T1 (CDK9, Homo sapiens, UniProt P50750): 97%
NEK4 (Homo sapiens, UniProt P51957): 96.1%
STK38 (Homo sapiens, UniProt Q15208): 46.6%
PRKCD (Homo sapiens, UniProt Q05655): 102%
LRRK2 (Homo sapiens, UniProt Q5S007): 85.6%
EPHA5 (Homo sapiens, UniProt P54756): 81.5%
PLK2 (Homo sapiens, UniProt Q9NYY3): 37.3%
KIT (Homo sapiens, UniProt P10721): 22.2%
CSNK1A1 (Homo sapiens, UniProt P48729): 85.8%
WNK2 (Homo sapiens, UniProt Q9Y3S1): 143%
MAP3K10 (Homo sapiens, UniProt Q02779): 94.6%
MAP2K6 (Homo sapiens, UniProt P52564): 85.7%
IRAK4 (Homo sapiens, UniProt Q9NWZ3): 96.9%
BTK (Homo sapiens, UniProt Q06187): 90.6%
AKT3 (Homo sapiens, UniProt Q9Y243): 81.2%
MAP4K2 (Homo sapiens, UniProt Q12851): 79.4%
MAPK13 (Homo sapiens, UniProt O15264): 95.6%
CSNK2A1 (Homo sapiens, UniProt P68400): 101%
CHEK1 (Homo sapiens, UniProt O14757): 112%
PRKG1 (Homo sapiens, UniProt Q13976): 109%
PRKCI (Homo sapiens, UniProt P41743): 85.7%
MAPK12 (Homo sapiens, UniProt P53778): 92.5%

Study 3
SMILES: CC(C)(O)c1cncc(-c2nc3ccc(F)cc3n2C2CC2)c1
Technique: competition with immobilised ligand
Tested at: 1 µM
Endpoint: remaining binding
eIF-2-alpha kinase GCN2, C-terminal kinase domain (EIF2AK4, Homo sapiens, UniProt Q9P2K8, S808G); cell-free assay: 100%
PRKCQ (Homo sapiens, UniProt Q04759); cell-free assay: 100%
Tyrosine-protein kinase ABL1, non-phosphorylated (ABL1, Homo sapiens, UniProt P00519, F317I); binding: 100%
TESK1 (Homo sapiens, UniProt Q15569); cell-free assay: 100%
CDK18 (Homo sapiens, UniProt Q07002); cell-free assay: 100%
Tyrosine-protein kinase ABL1, phosphorylated (ABL1, Homo sapiens, UniProt P00519, H396P); cell-free assay: 100%
MAK (Homo sapiens, UniProt P20794); cell-free assay: 100%
PIK3C2G (Homo sapiens, UniProt O75747); cell-free assay: 100%
MAP3K20 (Homo sapiens, UniProt Q9NYL2); cell-free assay: 100%
CAMK1D (Homo sapiens, UniProt Q8IU85); cell-free assay: 100%
KIT (Homo sapiens, UniProt P10721, V559D); cell-free assay: 100%
CAMK2G (Homo sapiens, UniProt Q13555); cell-free assay: 100%
IKBKB (Homo sapiens, UniProt O14920); cell-free assay: 100%
PIK3CA (Homo sapiens, UniProt P42336, I800L); cell-free assay: 90%
Mast/stem cell growth factor receptor Kit, autoinhibited (KIT, Homo sapiens, UniProt P10721); cell-free assay: 86%
DYRK2 (Homo sapiens, UniProt Q92630); cell-free assay: 100%
SLK (Homo sapiens, UniProt Q9H2G2); cell-free assay: 100%
PIP5K1C (Homo sapiens, UniProt O60331); cell-free assay: 100%
TLK2 (Homo sapiens, UniProt Q86UE8); cell-free assay: 100%
FLT3 (Homo sapiens, UniProt P36888, F691L/ITD); cell-free assay: 100%
NTRK3 (Homo sapiens, UniProt Q16288); cell-free assay: 100%
EPHA4 (Homo sapiens, UniProt P54764); cell-free assay: 100%
TGFBR1 (Homo sapiens, UniProt P36897); cell-free assay: 90%
NEK2 (Homo sapiens, UniProt P51955); cell-free assay: 100%
CDKL2 (Homo sapiens, UniProt Q92772); cell-free assay: 97%

Study 4
Compound: O=C(Nc1ccccc1)Nc1cccc(Oc2ccc3nccn3n2)c1
Tested at: 1 µM
Endpoint: remaining binding
PDPK1 (Homo sapiens, UniProt O15530); competitive binding panel; baseline: vehicle: 100%
BRSK1 (Homo sapiens, UniProt Q8TDC3); competitive binding panel; baseline: vehicle: 100%
STK33 (Homo sapiens, UniProt Q9BYT3); competitive binding panel; baseline: vehicle: 99%
CDK15 (Homo sapiens, UniProt Q96Q40); competitive binding; PFTAIRE2: 43%
STK38 (Homo sapiens, UniProt Q15208); competitive binding panel, refers to: NDR1; baseline: vehicle: 96%
AAK1 (Homo sapiens, UniProt Q2M2I8); competitive binding panel; baseline: vehicle: 100%
MAP3K13 (Homo sapiens, UniProt O43283); competitive binding; LZK: 100%
MAP2K5 (Homo sapiens, UniProt Q13163); competitive binding panel, refers to: MEK5; baseline: vehicle: 63%
SIK1 (Homo sapiens, UniProt P57059); competitive binding; SIK: 100%
CHUK (Homo sapiens, UniProt O15111); competitive binding; IKK-alpha: 93%
EPHA5 (Homo sapiens, UniProt P54756); competitive binding panel; baseline: vehicle: 100%
AKT1 (Homo sapiens, UniProt P31749); competitive binding panel; baseline: vehicle: 68%

Repeated from above (study 3):
TESK1 (Homo sapiens, UniProt Q15569); cell-free assay: 100%
CDK18 (Homo sapiens, UniProt Q07002); cell-free assay: 100%
Tyrosine-protein kinase ABL1, phosphorylated (ABL1, Homo sapiens, UniProt P00519, H396P); cell-free assay: 100%
MAK (Homo sapiens, UniProt P20794); cell-free assay: 100%
PIK3C2G (Homo sapiens, UniProt O75747); cell-free assay: 100%
MAP3K20 (Homo sapiens, UniProt Q9NYL2); cell-free assay: 100%
CAMK1D (Homo sapiens, UniProt Q8IU85); cell-free assay: 100%
KIT (Homo sapiens, UniProt P10721, V559D); cell-free assay: 100%
CAMK2G (Homo sapiens, UniProt Q13555); cell-free assay: 100%
IKBKB (Homo sapiens, UniProt O14920); cell-free assay: 100%
